Measured values collected from several papers.
Each line is one published result; not all experiments were run side by side. Several values in a cell are separate wells, animals, samples, runs or records. ± marks the error that the study gave.

SMILES | target or system | test | test system | conditions | scale | endpoint | value
CC(C)CC(=O)Nc1ccc(C2CCCCC2)cc1 | – | hepatocyte stability | cryopreserved mouse hepatocytes | 1 µM | – | hepatic clearance | 69 mL/min/kg
C=CC(=O)N1CC2C(=O)N(CCN(C)C)c3c(c4cc(Cl)c(-c5c(O)cccc5F)nc4n(-c4c(C)ccnc4C(C)C)c3=O)N2CC1C (stereo not shown) | – | immunohistochemistry | BALB/c nude mouse, H358-Luc intracranial tumour, brain tissue | 100 mg/kg, 21 days | – | p-ERK level | decreased
COc1cc(O)ccc1CCC(c1ccc(O)cc1)c1cc2c(c(C)c1O)OC(c1ccc(O)cc1)CC2 (mixture of isomers) | – | measured: RvD5 | human whole blood | 30 µM, added: Escherichia coli | – | amount | 6 ± 2 pg/mL blood
C=C(NC(=O)c1csc(-c2nc3c(cc2O)-c2nc(cs2)C(=O)NC(C(C)O)C(=O)NC(=C(C)OC)c2nc(cs2)C(=O)NC2c4nc(cs4)C(=O)NC(COC(=O)c4c5c6c(cccc6n4O)COC(=O)C(OC4CC(C)(O)C(N(C)C)C(C)O4)C2OC5)c2nc-3cs2)n1)C(N)=O (stereo not shown) | – | – | Sprague-Dawley rat, plasma | intravenous, infusion | – | half-life | 4.7 h
COC1OC(C)C(OC2OC(C)C(OS(=O)(=O)O)C(OC3OC(C)C(OC4OC(C)C(OS(=O)(=O)O)C(OC5OC(C)C(OC6OC(C)C(OS(=O)(=O)O)C(OC7OC(C)C(OC8OC(C)C(OS(=O)(=O)O)C(OC9OC(C)C(OC%10OC(C)C(OS(=O)(=O)O)C(OS(=O)(=O)O)C%10O)C(OS(=O)(=O)O)C9O)C8O)C(OS(=O)(=O)O)C7O)C6O)C(OS(=O)(=O)O)C5O)C4O)C(OS(=O)(=O)O)C3O)C2O)C(OS(=O)(=O)O)C1O (stereo not shown) | – | – | human plasma | 128 µg/mL | – | activated partial thromboplastin time | 39.9 ± 0.4 s
COCC1CN(C2CCN(c3cc(OC)c(Nc4ncc(Br)c(Nc5ccc6c(c5P(C)(C)=O)OCCO6)n4)cc3C)CC2)C1 | – | RECIST 1.1 | advanced EGFR-mutant NSCLC patients | 90 mg once daily | – | not evaluable patients | 0%
COC1CN([C@H]2CC[C@H]([C@@]3(C)Oc4c(Cl)cc(C(=O)NCc5c(SC)cc(C)[nH]c5=O)c(C)c4O3)CC2)C1 | – | RNA-seq, measured: FMNL2 mouse homolog | mouse, HT-1376 xenograft, whole blood | dose not given | reference: vehicle | log2 fold change | 0.389
Nc1ncc(-c2cc(-c3cnn(CC(F)(F)F)c3)ncc2F)nc1C(=O)NC1CNCC(F)C1 (stereo not shown) | CSNK1E | KINOMEscan | – | 1 µM | reference: DMSO control | remaining binding | 77%
NC[C@@H](C(=O)Nc1ccc(-c2cn[nH]c2)cc1)c1ccccc1 | – | tonometry | NZW rabbit, magnetic bead-induced ocular hypertension | ocular, 0.1%, 4 h | – | IOP | 30.5 mmHg
COC1OC(C)C(OC2OC(C)C(O)C(OS(=O)(=O)O)C2OS(=O)(=O)O)C(OS(=O)(=O)O)C1OS(=O)(=O)O (stereo not shown) | – | – | human plasma | 128 µg/mL | – | activated partial thromboplastin time | 33.7 ± 0.4 s
Cc1ncsc1-c1ccc(C(C)NC(=O)C2CC(O)CN2C(=O)C(NC(=O)CCCCCCCCCCN2CCCC(Nc3ncc(Cl)c(Nc4ccccc4S(=O)(=O)C(C)C)n3)C2)C(C)(C)C)cc1 (stereo not shown) | 22Rv1 | RNA-seq, measured: MYCL mRNA | – | concentration not given | reference: DMSO | log2 fold change | -2.2
COC1OC(C)C(OS(=O)(=O)O)C(OC2OC(C)C(OS(=O)(=O)O)C(OC3OC(C)C(OS(=O)(=O)O)C(OC4OC(C)C(OS(=O)(=O)O)C(OC5OC(C)C(OS(=O)(=O)O)C(OC6OC(C)C(OS(=O)(=O)O)C(OC7OC(C)C(OS(=O)(=O)O)C(OC8OC(C)C(OS(=O)(=O)O)C(OS(=O)(=O)O)C8OS(=O)(=O)O)C7OS(=O)(=O)O)C6OS(=O)(=O)O)C5OS(=O)(=O)O)C4OS(=O)(=O)O)C3OS(=O)(=O)O)C2OS(=O)(=O)O)C1OS(=O)(=O)O (stereo not shown) | – | – | human plasma | 8 µg/mL | – | activated partial thromboplastin time | 52.5 s and 51.4 s and 52.7 s
Nc1ccc2c(c1)CN(C1CCC(=O)NC1=O)C2=O (stereo not shown) | – | deuterium-hydrogen exchange | aqueous phosphate buffer | pH 7.4, 37 °C | – | exchange rate constant | -0.021 h⁻¹

Excerpt of the above:
SMILES | target or system | test | test system | conditions | scale | endpoint | value
Nc1ccc2c(c1)CN(C1CCC(=O)NC1=O)C2=O (stereo not shown) | – | deuterium-hydrogen exchange | aqueous phosphate buffer | pH 7.4, 37 °C | – | exchange rate constant | -0.021 h⁻¹
